Assay results of several laboratories.
Each numbered part is a random draw from the data of one study; scales do not carry over between parts. Substitutions count along the parent as printed.

Sample 1
Target: UBE2E2 UBC core domain (UniProt Q96LR5)
UniProt Q96LR5, sequence (whole entry, looked up): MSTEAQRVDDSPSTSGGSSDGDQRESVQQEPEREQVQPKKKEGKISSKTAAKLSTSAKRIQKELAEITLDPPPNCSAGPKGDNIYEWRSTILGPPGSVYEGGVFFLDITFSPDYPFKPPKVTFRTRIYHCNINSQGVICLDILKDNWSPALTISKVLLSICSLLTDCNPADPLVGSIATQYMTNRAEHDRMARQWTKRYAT
Technique: yeast two-hybrid
Sample: yeast
Notes: mostly zero background
Relative to: not given
Direction: higher = stronger interaction
Endpoint: lacZ reporter activity
B1: RNF135 RING domain (UniProt Q8IUD6); chain PVWLAEDDLGCIICQGLLDWPATLPCGHSFCRHCLEALWGARDARRWACPTCRQGAAQQPHLR
B2: PRKN RING domain (UniProt O60260); chain LIATNSRNITCITCTDVRSPVLVFQCNSRHVICLDCFHLYCVTRLNDRQFVHDPQLGYSLPCVAGCPNSLIKELHH
B3: DTX1 RING domain (UniProt Q86Y01); chain QKVKNPPDEDCTICMERLVTASGYEGVLRHKGVRPELVGRLGRCGHMYHLLCLVAMYSNGNKDGSLQCPTCKAIYGEKTGTQ
ALDRLEKLLRCSRCTNILREPVCLGGCEHIFCSNCVSDCIGTGCPVCYTPAWIQDLKI (BARD1 RING domain (UniProt Q99728)): 0
B1 (RNF135 RING domain): 0
NTAPSLTVPECAICLQTCVHPVSLPCKHVFCYLCVKGASWLGKRCALCRQEIPEDFLDK (RNF146 RING domain (UniProt Q9NTX7)): 0
QLRRLQEERTCKVCLDRAVSIVFVPCGHLVCAECAPGLQLCPICRAPVRSRVRTF (BIRC7 RING domain (UniProt Q96CA5)): 0
B2 (PRKN RING domain): 0
KLWDINAHITCRLCSGYLIDATTVTECLHTFCRSCLVKYLEENNTCPTCRIVIHQSHPLQ (PCGF3 RING domain (UniProt Q3KNV8)): 0
B3 (DTX1 RING domain): 0

Sample 2
Target: Histone acetyltransferase KAT6A, winged helix 1, GST fusion (KAT6A, Homo sapiens, UniProt Q92794, residues 1-85)
Technique: protein binding microarray
Form: double-stranded DNA, one strand shown
Sample: in vitro
Tested at: not given
Notes: 8-mer, flanks averaged, mean of 2 arrays, mostly near background
Relative to: not given
Direction: higher = stronger binding
Endpoint: E-score
Residues (chain): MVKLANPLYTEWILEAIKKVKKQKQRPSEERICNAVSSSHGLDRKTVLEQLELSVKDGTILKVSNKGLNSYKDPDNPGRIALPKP
CGTCAACA: 0.169
GAATGGAA: -0.129
TACCGCGA: 0.342
GTTAGAAA: -0.118
AACAGGCC: -0.0685
CATGAAAG: -0.197
GGGAGACC: 0.094
CCGACCGA: 0.292
AACCGGTA: 0.241
CATGCGAA: 0.0959
CCCTTTTC: -0.192
CCTAATGC: -0.049
GCAACGCC: 0.0936
AAGGATCC: -0.0329
CTAATTCA: -0.00976
AACACTAA: 0.0566
CATAACCC: -0.0623
ACACCAAC: -0.15
CGGCCTCA: 0.228
ACCCGTAC: 0.334

Sample 3
Target: CCNF, cyclin fold, Cln2 fusion (human)
Technique: yeast growth competition, sequencing
Sample: yeast
Notes: strong parent motif
Relative to: not given
Direction: higher = stronger binding
Endpoint: normalised enrichment score
Starting sequence: CDC25A docking peptide (human); PPHRRRLLFACSP
PPHRNRLLFACSP [R5N]: 1.11
PPHRRRLLQACSP [F9Q]: 0.687
PPKRRRLLFACSP [H3K]: 2.52
PSHRRRLLFACSP [P2S]: 6.33
PPHRRRLLFECSP [A10E]: 9.25
PPHRRRLMFACSP [L8M]: 7.72
PPHRQRLLFACSP [R5Q]: 1.63
PPHRRHLLFACSP [R6H]: 3.24
PPHRRRLLFAKSP [C11K]: 6.17
APHRRRLLFACSP [P1A]: 7.62
PPHRRRLLFACSL [P13L]: 6.53
PPHRRRLLFACRP [S12R]: 6.68
PPHGRRLLFACSP [R4G]: 6.44
PPHRTRLLFACSP [R5T]: 1.4

Sample 4
Target: RNA binding protein fox-1 homolog 2, RRM domain, GST-SBP tag (RBFOX2, Homo sapiens, UniProt O43251-10, residues 100-194)
Technique: RNA Bind-n-Seq
Form: RNA
Sample: in vitro
Tested at: 365 nM
Notes: natural RNA segment, single round, ends assumed
Relative to: no-protein control
Direction: higher = stronger binding
Endpoint: RBNS enrichment (R)
Residues (chain): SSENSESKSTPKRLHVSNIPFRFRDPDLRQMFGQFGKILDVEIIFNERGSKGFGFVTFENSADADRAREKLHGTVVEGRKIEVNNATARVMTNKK
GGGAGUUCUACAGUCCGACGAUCCACCAUUCAAGAAGAGCACAGGCGCUGUUGGACAAGGCGCCCACCACUCUCACUCCCUCCAGGAACAAAGAGCAGCUUUUGAGCCCGGACUUGUUGCUGGUUUAAAGGUUUGGAAUUCUCGGGUGCCAA: 0.493
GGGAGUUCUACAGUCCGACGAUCAAACAGAUUCAGGCCAGCCCAGCCAGGCCAACAGCACCUCCCCGCUGGGAAGAGAAGAGGGCCCAGCCCAGAGCCACCUGGAUCUAUCCCUGCGGCCUCCACACCUGAACUGGAAUUCUCGGGUGCCAA: 0.432
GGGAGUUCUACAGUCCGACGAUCUUCAGCCACAGCUGUGAGCAGCUCUCUGCCAGCUAUGUGGCCAGGGACCACAAAACUACCAUGUGAGACUGUGGACCCCACCCACACAGGCCAGGGCAGAUGGCCAAGGGUGGAAUUCUCGGGUGCCAA: 0.581
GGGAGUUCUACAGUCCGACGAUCUUGAAUUAAAGAUACCGAUUAAAGAUUCUACCCUACAAAUCAUGUGUAUUUGUAUAUUUUAGGUUAAAAAGACUUUAUAUGUUUCAUUCACUUUCCCAUGAAACUGCUGAUGGAAUUCUCGGGUGCCAA: 0.55
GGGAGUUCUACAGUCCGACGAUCGCCUCACGGAUACAUCCAGCUAUGUGCUUGUCUGGUAGCCUUUGCGUUUAACAAACUAGCAUGAGGCCUUUCAUAUCUAAAUGCUGUGUGAUAGACAAUUUCAGCUAGCCUGGAAUUCUCGGGUGCCAA: 0.377
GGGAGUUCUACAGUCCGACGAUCAGUUUCAGAAUUGCUGGGAAAGUUACCCCACUGGUGGGUGAGGAUCUAUCCUCAACCUACAUCCAGAUCCUAUGUGCUGCUUGCACAGAGGCCUUUGGCUUUUGACCCAGUGGAAUUCUCGGGUGCCAA: 0.258
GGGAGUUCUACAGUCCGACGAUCUCCGUGCGUCAGUGGCUGGCAGAAGAAAGACGCCUUUGUCUGUGUAAUGCCUCUGUUAACUUUGCCAGGAGCUUUGAGAGUCUGCCCUCUCCCACCCUUCCUGAACCAUGUGGAAUUCUCGGGUGCCAA: 0.357
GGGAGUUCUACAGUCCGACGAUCAUUGACUUCCCAAAUUUGUGUUUUUAAGAAGGCUUUGCUGCAAGCUACCAUUCCCAAUGGGGCAGUCAACUCUGAGAAUAUUACAAGCCAUCUUUAUUGCCAAAACCAGCUGGAAUUCUCGGGUGCCAA: 0.497
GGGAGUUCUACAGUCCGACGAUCUGCUGAACUGACAUGAACAACCGAGAAUGUCCUUCUUGGUUGUCAAAAGACAGUUUUCCAUCCUACAGUAAUUGGGAUGAAGAACAAAACAGUUGAUCCUUGUAAAUACAUGGAAUUCUCGGGUGCCAA: 0.244
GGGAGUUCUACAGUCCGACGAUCAGGAGAAGAAUUUUCAGACCCCAGCGGCUGAGUCAUGAUCUCCCUGCCGCCUCAAUGUGGUUGCAAGGCCGCUGUUCACCCACAGGGCUAAGAGCUAGCGCUGCCGCACCUGGAAUUCUCGGGUGCCAA: 0.29
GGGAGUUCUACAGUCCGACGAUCGGGAUGAUAGAAUACAAAGAAUAUAUUUUUGUUAUGGCUGGUUACCACCAGCCUUUCUUCCCCUUUGUGUGUGUGGUUCAAGUGUGCACUGGGAGGAGGCUGAGGCCUGUUGGAAUUCUCGGGUGCCAA: 0.992
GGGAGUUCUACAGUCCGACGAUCCCUGGCAGGAAUGGAACUCCAUCAGGGAACAGGGCAGCUCUGUUUGAAUGGGGUGAAAAACAGCAAAAUUAAUUCUUAGCAAGCUCCUUGUUCUCUACUGUUCACCGGGAUGGAAUUCUCGGGUGCCAA: 0.6

Sample 5
Target: ABI1, truncated, D143A, DHFR fusion (Arabidopsis thaliana)
Technique: DHFR PCA, deep sequencing
Sample: yeast
Notes: methotrexate growth selection, single substitutions
With: (+)-ABA 200 µM
Relative to: wild-type fitted maximum
Direction: higher = stronger binding
Endpoint: relative binding score
Starting sequence: PYL1, truncated, DHFR fusion (Arabidopsis thaliana); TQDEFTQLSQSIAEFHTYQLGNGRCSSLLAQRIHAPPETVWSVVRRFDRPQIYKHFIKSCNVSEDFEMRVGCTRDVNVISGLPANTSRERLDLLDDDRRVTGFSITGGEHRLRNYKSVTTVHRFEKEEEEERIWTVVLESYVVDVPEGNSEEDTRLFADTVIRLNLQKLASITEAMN
G148A: 86.2%
T101P: -1.44%
I12W: 56.1%
T17L: 71.4%
V70G: 67.8%
L138N: 18.4%
L28N: 40.7%
Y53V: 27.8%
E129A: 108%
I105S: 90.2%
N177T: 101%
T73L: 102%
Q31R: 96%

Repeated from above (sample 3):
PPHRRRLLFACSL [P13L]: 6.53
PPHRRRLLFACRP [S12R]: 6.68
PPHGRRLLFACSP [R4G]: 6.44
PPHRTRLLFACSP [R5T]: 1.4
